Assay results of several laboratories.
Protocols differ between the studies behind these lines. ± marks the error that the study gave.

| Compound | target or system | assay | system | setting | how to read | measurement | result |
| --- | --- | --- | --- | --- | --- | --- | --- |
| Cc1cn(-c2ccc3n(c2=O)CCN([C@@H](C)[C@@H]2CC[C@H](c4cc(F)c(Cl)cc4C(F)(F)F)O2)C3=O)cn1 |  | item: amyloid beta 40 | human, non-elderly, cerebrospinal fluid | 100 mg once daily, 14 days, sampled 336 h | baseline: placebo | change from baseline | -26.8% |
| COc1nnc2ccc(N3CCC(c4ccc(OCCN5CCN(C)C(=O)[C@H]5C)cc4)CC3)nn12 |  |  | human patients | 5 mg once daily, 2-fold above baseline |  | time above HEXIM1 threshold | 0 h |
| NC(=O)c1cnc2[nH]ccc2c1N[C@@H]1[C@@H]2CC3C[C@H]1C[C@@](O)(C3)C2 |  | flow cytometry, item: CD4+ central memory T cells | Japanese healthy subjects, peripheral blood | oral, 100 mg twice daily, day 4 |  | change from baseline | -1.4% |
| CN(C(=O)n1cnc(-c2ccc[n+]([O-])c2)c1)C1CCCCC1 |  | item: OEA | human, plasma | 2.5 mg single dose |  | AUC(0-t) | 575 ng·h/mL |
| CN[C@@H](C)C(=O)N[C@H]1CN(S(=O)(=O)c2cccc(S(=O)(=O)N3CC[C@H]4CC[C@@H](C(=O)NC(c5ccccc5)c5ccccc5)N4C(=O)[C@@H](NC(=O)[C@H](C)NC)C3)c2)CC[C@H]2CC[C@@H](C(=O)NC(c3ccccc3)c3ccccc3)N2C1=O |  | RECIST 1.1 | advanced pancreatic cancer patients | dose not given, efficacy-evaluable, added: AG |  | best response stable disease | 40% |
| Cc1ccc(C(=O)OCc2ccc([C@@H](CN)C(=O)Nc3ccc4cnccc4c3)cc2)c(C)c1 |  | tonometry | Macaca cyclopis, ocular normotensive | ocular, 0.02%, 24 h |  | IOP | 18.3 mmHg |
| CCc1c(C)nc(-c2ccc(Cl)s2)nc1Nc1ccc(CC(=O)O)cc1 |  |  | mice, chronic ethanol plus binge, liver | intraperitoneal, 0.3 mg/kg daily, ethanol diet 4 weeks, dosed last two | baseline: vehicle | triglyceride content | no effect |
| C[C@H](NC(=O)c1c(C(F)F)nn(C)c1Oc1cccc(C(F)(F)F)c1)c1ccc(C(=O)O)cc1 |  | irRECIST | human, advanced tumours | 500 mg | best overall response | not evaluable | 42.9% |
| COc1ccc2c(c1)CN(Cc1ccc(C(=O)O)cc1)CCS2 |  |  | exercised mdx mice | 50 mg/kg, 4 weeks |  | forelimb grip strength | 0.179 ± 0.005 kgf |
| Cn1cc(-c2ccc(-c3cncc(Cl)c3N3CCC4(CCNC4=O)CC3)cc2)cn1 | COLO 205 | gene expression, microarray, item: HOXC6 mRNA |  | concentration not given, 2 h | baseline: untreated cells | log2 fold change | 3.29 |
| C=CC(=O)N1CCC(c2ccc(C(N)=O)c(-c3ccc(Oc4ccccc4)cc3)n2)CC1 |  | tumour response, Lugano classification | patients with relapsed/refractory MCL | dose not given, investigator assessed, 16.4 months follow-up |  | CR | 32.1% |
| CC(C)[C@H](C(=O)Nc1ccc(C(=O)NO)cc1)c1ccccc1 |  | volumetric MRI | human, right internal auditory canal | dose not given, 358 days |  | tumour volume | 0.0157 cm³ |
| N#Cc1ccc2c(-c3ccncc3)c(-c3ccc(F)cc3)nn2c1 |  | kinase binding, competitor, MIB/MS competition, item: CDC7 | Candida albicans cell lysate | 10 µM | baseline: DMSO | log2 fold change | -0.367 |
| COc1ccc(F)cc1C(=O)NCc1ccc(-c2nn([C@@H](C)C(F)(F)F)c(N)c2C(N)=O)cc1 |  |  | relapsed/refractory CLL patients | dose not given, patients with longitudinal samples |  | response, best overall, PR, PR-L | 81% |
| N#Cc1ccc2c(c1)[C@H]1CCCN(C(=O)c3ccc4[nH]cnc4c3)[C@H]1C2 |  | item: body weight | human | 240 mg once daily, day 28, adjusted mean | baseline: placebo | change from baseline | -1.25 kg |
| CC(C)NCC(O)c1ccc(O)c(O)c1 (stereo not shown) |  |  | ventricular cardiomyocytes, C57BL/6 mouse | dose not given, 0.5 s |  | sarcomere length | 1.52 µm |
| N#Cc1ccc2c(c1)[C@H]1CCCN(C(=O)c3ccc4[nH]cnc4c3)[C@H]1C2 |  |  | human, urine | 80 mg, 24 h, day 1 over day -1 | baseline: placebo and baseline | total urinary corticosteroids | 76.6 % change |
| OC(CCN1CCCCC1)(c1ccccc1)C1CC2C=CC1C2 (stereo not shown) |  | resting-state EEG | healthy elderly humans | oral, 2 mg, eyes closed, LS mean |  | EEG gamma power, O2 Pz | 1 µV² |
| CC(C)c1ncc(C(=O)N2CCOC3(CCN(Cc4ccc(F)c(CCNC[C@H](O)c5ccc(O)c6[nH]c(=O)sc56)c4)CC3)C2)s1 |  |  | COPD patients | inhaled, 100 µg twice daily, 12 h postdose, dosing day 1 | baseline: baseline | placebo-corrected trough FEV1 change | 18 mL |
